Results gathered from unrelated publications.
Numbered parts are unrelated; each lists some results of a single study. Changes are numbered by the printed parent chain.

Series 1
Target: Runt-related transcription factor 1, full length (RUNX1, Homo sapiens, UniProt Q01196-8, residues 1-480)
Method: protein-binding microarray
Molecule type: hairpin DNA
Medium: in vitro
Tested at: not given
Notes: whole hairpin DNA, median over replicate spots
Baseline: not given
Reading: higher = stronger binding
Measurement: median fluorescence
CTCAGTTCGGTGGGCTGGACTCCTGTCCAGCCCACCGAACTGAGACACTC (5mC at 8): 1950 a.u.
GAGGCCTTTCGCGGTTGGCCTCCTGGCCAACCGCGAAAGGCCTCACACTC: 2930 a.u.
CTCAGCGCTGTGGGCTGGACTCCTGTCCAGCCCACAGCGCTGAGACACTC (5mC at 6): 1840 a.u.
GAGGCCTGTCCGGGTTGGCCTCCTGGCCAACCCGGACAGGCCTCACACTC (5mC at 11 33): 1740 a.u.
GCGGCCTGTCGCGGTTGGCCTCCTGGCCAACCGCGACAGGCCGCACACTC (5mC at 2): 2790 a.u.
GAGGCCTGTTGCGGTCGGCCTCCTGGCCGACCGCAACAGGCCTCACACTC: 4760 a.u.
GAGGCCTGTCGCGATTGGCCTCCTGGCCAATCGCGACAGGCCTCACACTC: 1620 a.u.
GAGGCCTGTCGCCGTTGGCCTCCTGGCCAACGGCGACAGGCCTCACACTC (5mC at 31): 1710 a.u.
GAGGCCCAACCGCATCAGCCTCCTGGCTGATGCGGTTGGGCCTCACACTC: 3600 a.u.

Series 2
Target: Fragile X messenger ribonucleoprotein 1, C-terminal low-complexity region (Fmr1, Mus musculus, UniProt P35922)
Method: RNA Bind-n-Seq
Molecule type: RNA
Medium: in vitro
Tested at: 200 nM
Notes: whole 134-nt RNA, ends assumed
With: 150 mM KCl
Baseline: input library
Reading: higher = stronger binding
Measurement: log2 enrichment
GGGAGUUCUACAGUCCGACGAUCUCCUGUGCUACACAUCGUAUGUACCGAAUCGGGUUUUUUUGGUUUUUUUGGUUUUUUUGGAAAGUAUUAUGUUACGCCGUUCGGAUCUGCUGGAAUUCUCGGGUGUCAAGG: -0.0811
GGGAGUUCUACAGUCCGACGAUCUGGCCCUGGUGGCUUGCGGGGAGGAAGAGGUGGCCUCAUGGAUCGUGGUGGUCCCGGUGGAAUGUUCAGAGGUGGCCGUGGUGGAGACAGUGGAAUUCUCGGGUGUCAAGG: 0.121
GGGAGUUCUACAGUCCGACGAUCACCAUGCAGGUGGGCAUCUUUGGGAAGUGGGGCAAGGGGGGGAUAGGGAGGGGGGUAACACUUUGGGAACAGGUGGUCUCAGGUCGUUUCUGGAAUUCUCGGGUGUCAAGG: 0.726
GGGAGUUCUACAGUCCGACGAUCUCCUGUGCUACACAUCGUAUGUACCGAAUCGGCCCCCCGGCCCCCCGGGGCCCCCCGGGAAAGUAUUAUGUUACGCCGUUCGGAUCUGCAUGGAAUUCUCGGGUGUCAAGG: -0.364
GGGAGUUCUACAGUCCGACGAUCCAAGUCCUGUGCUACACAUCGUAUGUACCGAAUCGGAAAAGGAAAAGGGAAAAGGGAAAGUAUUAUGUUACGCCGUUCGGAUCUGCACUUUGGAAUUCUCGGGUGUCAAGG: -0.861
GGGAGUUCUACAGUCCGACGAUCUCCUGUGCUACACAUCGUAUGUACCGAAUCGGGGAGGGGUUUUUUUGGGGUUUUUGGGGAAAGUAUUAUGUUACGCCGUUCGGAUCUGCAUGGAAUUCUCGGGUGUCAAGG: 0.827
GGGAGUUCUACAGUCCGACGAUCUGGCCGGUGGCCGUGAGAACACGCUGUGUGGCUGAAAAGUGAAGGCAAGAGCUGAUUUGGCCUCUGUGCUCCCCUCCGCAAGGGGAUCGUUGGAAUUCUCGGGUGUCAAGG: -0.721
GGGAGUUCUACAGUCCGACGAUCCACAGACAAGACGCACCCACACAGACACAGAGGGAAGGGGUUGGGAUGGGGACAGGGUGCACAGCAGGGCGGGGUAGGACCCCAGCCCCUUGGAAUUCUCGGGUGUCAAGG: 1.18
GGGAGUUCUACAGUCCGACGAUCCCUCAAGUCCUGUGCUACACAUCGUAUGUACCGAAUCGGUUGGUUGGUUGGGGAAAGUAUUAUGUUACGCCGUUCGGAUCUGCACUUCCAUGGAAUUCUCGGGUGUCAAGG: -0.00898
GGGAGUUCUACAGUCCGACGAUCACCAUGCAGGUGGGCAUCUUUGGGAAGUGGGGCAAGGGGGGGAUAGGGAGGGGGGUAACACUUUAAAAACAGGUGGUCCCAGGUCGUUUCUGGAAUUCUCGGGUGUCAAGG: 0.646
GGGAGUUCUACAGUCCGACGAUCAAGUCCUGUGCUACACAUCGUAUGUACCGAAUCGGCCCCCGGGCCCCCGGCCCCCGGAAAGUAUUAUGUUACGCCGUUCGGAUCUGCACUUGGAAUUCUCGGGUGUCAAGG: -0.389
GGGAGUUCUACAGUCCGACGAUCUGGAAGCUCAUACGACUGUGAAAGAAGCUGAGGAUGACAACAUCUCGGUCACAAUCCAGGCUGAAGAUGCCAUCACUCUGGAUUUUGAUGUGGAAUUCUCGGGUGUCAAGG: -1.3
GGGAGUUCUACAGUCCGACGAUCUCCUGUGCUACACAUCGUAUGUACCGAAUCAAAUUUUUUUAAAUUUUUUUAAACCCAAAAAAGUAUUAUGUUACGCCGUUCGGAUCUGCAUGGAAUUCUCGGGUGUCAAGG: 0.458
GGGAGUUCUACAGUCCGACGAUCCCUGUGCUACACAUCGUAUGUACCGAAUCGGGGAAAAAAAGGGGUGGGGUUUUUUUGGGGAAAGUAUUAUGUUACGCCGUUCGGAUCUGCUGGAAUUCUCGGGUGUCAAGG: 0.38

Series 3
Target: RNA binding protein fox-1 homolog 2, RRM domain, GST-SBP tag (RBFOX2, Homo sapiens, UniProt O43251-10, residues 100-194)
Method: RNA Bind-n-Seq
Molecule type: RNA
Medium: in vitro
Tested at: 365 nM
Notes: natural RNA segment, single round, ends assumed
Baseline: no-protein control
Reading: higher = stronger binding
Measurement: RBNS enrichment (R)
Target sequence (chain): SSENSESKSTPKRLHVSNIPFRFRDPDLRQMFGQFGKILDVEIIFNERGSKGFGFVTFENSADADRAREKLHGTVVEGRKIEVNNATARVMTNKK
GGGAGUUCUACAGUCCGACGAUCUACCCCAGUUUUACAAAUGGCUAAGCUGAAGCAGAGAUGUUGAAGGAUCCUACCUAAGGGGCACAACUAGUAAGGGAGUAGAGCUGAGAUUGGCUCCAGAGUUCUUGUUUUGGAAUUCUCGGGUGCCAA: 0.179
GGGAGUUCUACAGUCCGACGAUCCCGUAUGUGGCAAAUUCUAAGCUGCCAUAUUGAACAUCAUCCCACUGGGAGUGGUUAUGUUGUAUCCCCAUCUUGGCUGGCUUCAGUUUUUGCUGUAGCCCUAGAGCACUUGGAAUUCUCGGGUGCCAA: 0.272
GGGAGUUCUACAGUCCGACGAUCCCCCUCCCCAGACGCCUCCAUUAACCACAGACUAUGUAGCGCUGGCCCUAGCCUCUGGCAGAGCCUGUUCCUGGCCAAACUGUGGCUACAGCUGGAGGGUCAGGAACUGUUGGAAUUCUCGGGUGCCAA: 0.354
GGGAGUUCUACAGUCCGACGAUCAGAGGUAGGGACUAAGCACCAGGUGCCAGCAGGCCCUCCUGCUGUGGCCACUCCAGAGUGCUCCGUGUCUCCAUGUGUCCGUGGCCUGCCCCCCCCCCAACCCCCCAAAUUGGAAUUCUCGGGUGCCAA: 0.264
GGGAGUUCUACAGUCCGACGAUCUAGCCUGGGCCCCCUCUGUGCACACAGUUCAGGCCUGCCCAGCUUCUUAUGGGCAAGCCACCAUCCCACUCUCGUCUCCCUGAGCUGUCUGGUUCUGCGGACCCAGGAAGUGGAAUUCUCGGGUGCCAA: 0.324
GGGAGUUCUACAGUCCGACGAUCACAGUGGCUGCUGGGUUACUGUCCCAUGAGACUGUACUGGACGGGUGCAGCCAGAGUGGCGCAGUGCACUAAGGUGCCGGCCGCCCUGCCUGCCCGGUGCCUCCCACUGAUGGAAUUCUCGGGUGCCAA: 0.254
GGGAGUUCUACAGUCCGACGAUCACCCGGAGCACUUCCUUUGCAGCGGUUGUUCCACAACCCUGGGAGGCAGCAGCUUCUUCGAGAAGGAUGGGGCUCCCUUUUGCCCCGAGUGCUACUUUGAGCGCUUCUCCUGGAAUUCUCGGGUGCCAA: 0.165
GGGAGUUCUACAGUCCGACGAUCUUUUGUAUUCAUAAGCUAAUAUGUUAGAGUUCUAUGUAGUUUUCUCUUGUGCACCUGCAUCAGAAAACCAUAGGACAACAAGGUGGCUAGGCAGUUAUCACCCCUCUGCUUGGAAUUCUCGGGUGCCAA: 0.358
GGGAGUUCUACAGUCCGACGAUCGAGGAGGAUGUUACUUCAUUUUAUAAAGAGGAAGGGGCCUGGGAGACUUGGGAAAAUGUUUCUGGAGAGGCUUUCAGAGUGGCUGGAAAAGGCUCUUGUUGCUGUAAUUUUGGAAUUCUCGGGUGCCAA: 1.18
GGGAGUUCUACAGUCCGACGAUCUAUCAUAAGAUGGACGCCAUAAUCCUGAGGCCUCCUAGAGGCUGAGGGGGCAACGGUGUGAUCCAGCUGGCUCAUCCCAGCCCAGGUGGGCCAAUUAUUCAAUUUUCAAGUGGAAUUCUCGGGUGCCAA: 0.215
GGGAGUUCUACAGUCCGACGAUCGGUUGCAACCUGGCAACAUUGAAUCCACCACCCUUGGGCUCCCUCUGGAAGCCCCAGCACCGGGGGGCUUUUGGGCACAGGGUCAGUGGUAGCCAUCUUAGACACUGACAUGGAAUUCUCGGGUGCCAA: 0.714
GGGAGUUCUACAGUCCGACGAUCGUAAGAAAGAAAGCCAGGACAAUAACUGGGCCAGCAGCUCUGAAGCACACCUUCCCCGUCUGUCCCAGUAGGGGCUGGCGCUGGGGUUGGAGGCCGCUGGCCUGUGCUCUUGGAAUUCUCGGGUGCCAA: 0.251

Series 4
Target: CCNB3, cyclin fold, Cln2 fusion (human)
Method: yeast growth competition, sequencing
Medium: yeast
Notes: strong parent motif
Baseline: not given
Reading: higher = stronger binding
Measurement: normalised enrichment score
Starting sequence: SCAPER docking peptide (human); SNARRSLNFGGST; partner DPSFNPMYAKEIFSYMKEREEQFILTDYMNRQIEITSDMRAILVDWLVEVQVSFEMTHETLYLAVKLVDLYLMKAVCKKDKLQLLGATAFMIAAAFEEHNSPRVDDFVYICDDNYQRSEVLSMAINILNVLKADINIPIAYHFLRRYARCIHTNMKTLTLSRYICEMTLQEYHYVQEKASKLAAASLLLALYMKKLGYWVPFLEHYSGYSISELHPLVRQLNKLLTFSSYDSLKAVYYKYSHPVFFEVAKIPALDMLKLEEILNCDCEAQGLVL
SNARRSLNFQGST [G10Q]: 0.733
SNARRSTNFGGST [L7T]: 0.11
SNARRSLNFRGST [G10R]: 0.35
SNARRSLNFGGNT [S12N]: 1.85
SNARRSLHFGGST [N8H]: 1.07
SNARRDLNFGGST [S6D]: 0.252
SCARRSLNFGGST [N2C]: 1.33
RNARRSLNFGGST [S1R]: 1.35
SNARRSLNCGGST [F9C]: 0.0686
SNARRKLNFGGST [S6K]: 2.12
SNARRSLNFGGSV [T13V]: 1.6
SNARRWLNFGGST [S6W]: 0.596
ANARRSLNFGGST [S1A]: 1.77
SNNRRSLNFGGST [A3N]: 0.483
SDARRSLNFGGST [N2D]: 1.47
SNARRSGNFGGST [L7G]: -0.103
SNARRSMNFGGST [L7M]: 0.28

Series 5
Target: ABI1, truncated, D143A, DHFR fusion (Arabidopsis thaliana)
Method: DHFR PCA, deep sequencing
Medium: yeast
Notes: methotrexate growth selection, single substitutions
With: (+)-ABA 710 µM
Baseline: wild-type fitted maximum
Reading: higher = stronger binding
Measurement: relative binding score
Starting sequence: PYL1, truncated, DHFR fusion (Arabidopsis thaliana); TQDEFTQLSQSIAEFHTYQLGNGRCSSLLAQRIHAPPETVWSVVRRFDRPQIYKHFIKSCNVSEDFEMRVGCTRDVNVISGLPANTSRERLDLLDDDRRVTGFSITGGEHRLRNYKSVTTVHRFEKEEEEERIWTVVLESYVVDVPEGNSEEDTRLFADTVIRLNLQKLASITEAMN
E4H: 103%
V145T: 94.8%
R46S: 95.9%
V76H: 28.4%
R155H: 90.1%
R155C: 99.4%
C60Q: 22.3%
S150Q: 83.8%
I52N: 93.3%
C72T: 94.2%
A158M: 94.4%
T119G: 1.86%
E125A: 105%
T106N: 98.1%
E131N: 111%
P50N: 7.13%
D144W: 52.8%
F15L: 96.1%

Excerpt of the above (series 5):
S150Q: 83.8%
E125A: 105%
R155H: 90.1%
D144W: 52.8%
A158M: 94.4%
R155C: 99.4%
P50N: 7.13%
V145T: 94.8%
E131N: 111%
F15L: 96.1%
